Results gathered from unrelated publications.
A part holds a random share of what one study measured. Positions count from the first letter of the parent shown.

Study 1
Target: CCND1, cyclin fold, Cln2 fusion (human)
Technique: yeast growth competition, sequencing
Matrix: yeast
Notes: weak parent motif
Reference: not given
Direction: higher = stronger binding
Measurement: normalised enrichment score
Starting sequence: LLGL2 docking peptide (human); KSLKKSLRQSFRR; partner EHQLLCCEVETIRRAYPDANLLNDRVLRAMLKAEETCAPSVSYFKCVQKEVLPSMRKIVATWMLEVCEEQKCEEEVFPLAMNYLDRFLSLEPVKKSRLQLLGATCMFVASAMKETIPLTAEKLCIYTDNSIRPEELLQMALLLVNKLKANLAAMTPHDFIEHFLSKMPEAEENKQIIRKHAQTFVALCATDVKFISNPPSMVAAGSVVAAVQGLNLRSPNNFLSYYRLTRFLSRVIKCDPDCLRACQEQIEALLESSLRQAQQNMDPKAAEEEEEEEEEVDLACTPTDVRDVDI
K4A: 1.08
R12A: 0.521
L7A: -0.167
L3A: -0.402
F11A: -0.413
R13A: 0.324

Study 2
Target: ABI1, truncated, D143A, DHFR fusion (Arabidopsis thaliana)
Technique: DHFR PCA, deep sequencing
Matrix: yeast
Notes: methotrexate growth selection, single substitutions
Added: (+)-ABA 2500 µM
Reference: wild-type fitted maximum
Direction: higher = stronger binding
Measurement: relative binding score
Starting sequence: PYL1, truncated, DHFR fusion (Arabidopsis thaliana); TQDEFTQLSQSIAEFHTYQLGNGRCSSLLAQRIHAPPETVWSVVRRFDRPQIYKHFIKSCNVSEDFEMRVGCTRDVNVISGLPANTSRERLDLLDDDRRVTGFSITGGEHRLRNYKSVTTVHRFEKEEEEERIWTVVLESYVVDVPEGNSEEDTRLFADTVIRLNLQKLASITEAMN; partner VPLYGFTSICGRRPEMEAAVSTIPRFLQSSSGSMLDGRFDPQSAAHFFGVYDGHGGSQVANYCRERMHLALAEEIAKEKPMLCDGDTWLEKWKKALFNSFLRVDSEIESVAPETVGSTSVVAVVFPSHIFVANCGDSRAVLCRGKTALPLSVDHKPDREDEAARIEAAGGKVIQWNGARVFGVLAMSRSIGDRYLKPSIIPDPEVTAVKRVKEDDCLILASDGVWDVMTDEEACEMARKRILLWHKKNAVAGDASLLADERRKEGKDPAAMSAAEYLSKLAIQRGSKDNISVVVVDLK
D95T: 68%
A84H: 68.2%
V62K: 82.5%
V121Q: -1.2%
E152T: 95.9%
E139F: 69%
Q167I: 90.7%
L93M: 87.9%
Q31G: 66%
N114D: 97.9%
D95C: 80.7%
T39H: 99%
C25N: 56.6%
W41N: -18.9%
G23N: 101%
V43C: 87.2%
V62I: 93.6%
W41I: -3.45%

Study 3
Target: Interferon regulatory factor 5, full length, phosphomimetic (IRF5, Homo sapiens, UniProt Q13568-2, residues 1-514, K96S/S451D/S453D/S456D/S462D)
Technique: protein-binding microarray
Molecule type: double-stranded DNA, one strand shown
Matrix: in vitro
Tested at: 250 nM
Notes: 60-bp whole probe
Added: salmon DNA 0.4 mg/ml
Reference: random background probes
Direction: higher = stronger binding
Measurement: log fluorescence
Shared flanks, not repeated: GCCTAGCAC … GTCTTGATTCGCTTGACGCTGCTG
TTAGGAGTGGGTCTCGGTTAGTGCTAG: -0.0601 z-score
TCACCTTCAGCTCTAGGACTGTGCTAG: -0.0278 z-score
TGGGATTTTTAGTTAGAAAAGTGCTAG: 0.11 z-score
GACGGTTTCGACTTTCCGGACGTGCTA: 6.19 z-score
GACGGTTTCGCTATCGGGACGTGCTAG: 7.13 z-score
TTAGATATCAGTTTCGAATAGTGCTAG: 7.07 z-score
TTAGGTTACCTTTCCCTTTAGTGCTAG: 0.752 z-score
CTGCCCTGGTTCCCCTGCCTGTGCTAG: -0.498 z-score
TTAGGACTGGACACTGGCTTAGTGCTA: -0.459 z-score
TCACATTGAGATTTCCAACTGTGCTAG: 0.392 z-score
TTAGGTATCGGTATAGGTTAGTGCTAG: 7.5 z-score
GTAGGTTTCGACTTTCGGTTAGTGCTA: 10.4 z-score
TTAGGTCTCCTACGGCTTTAGTGCTAG: -0.479 z-score
GACGGTTTCCTTCTCCTGAAGTGCTAG: 0.956 z-score
GTAGGTTTCGGTTCCGGTTAGTGCTAG: 10.6 z-score
GACGATCTCAGTTTCGTGACGTGCTAG: 2.13 z-score

Study 4
Target: RING finger protein unkempt homolog, zinc fingers 1-6, SBP tag (UNK, Homo sapiens, UniProt Q9C0B0, residues 30-357)
Sequence of UniProt Q9C0B0 (30-357, looked up): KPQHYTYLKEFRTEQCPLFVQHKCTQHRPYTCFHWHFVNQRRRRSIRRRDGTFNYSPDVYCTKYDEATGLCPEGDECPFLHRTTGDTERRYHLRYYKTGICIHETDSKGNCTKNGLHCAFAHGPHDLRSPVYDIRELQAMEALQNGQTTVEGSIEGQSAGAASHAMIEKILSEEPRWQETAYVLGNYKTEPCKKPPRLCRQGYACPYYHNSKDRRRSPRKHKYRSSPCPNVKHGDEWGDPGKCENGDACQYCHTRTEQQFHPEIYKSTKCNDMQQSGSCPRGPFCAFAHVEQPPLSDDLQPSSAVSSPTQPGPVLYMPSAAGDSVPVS
Technique: RNA Bind-n-Seq
Molecule type: RNA
Matrix: in vitro
Tested at: 100 nM
Notes: RNA with constant flanks, vertebrate orthologous sites, ends assumed
Reference: input RNA pool
Direction: higher = stronger binding
Measurement: bound/input enrichment
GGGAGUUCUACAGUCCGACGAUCCUGAAGCUUUGUGUUUGGCUGCACCUGCAUAAGCUGCUACAAAUAGAAUAAAGAAUCUCAUAGCCUGUGUCUAUCAUUUAGAUGCAUGGGAAAAUGGGCUUUGCACACAAUGGGUUUGGACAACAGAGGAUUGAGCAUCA: 1 ratio
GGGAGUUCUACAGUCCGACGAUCCAUUGUACCCUGCUGUAUAAUAAAUAAUCUUAGACAUUUAUCAACUGUUGAUACAAAUGUUAGUCCCUAACCACUUUUUAUAUGUUUUAAAUUUUUGAAAUUCAAGUGUACCUGCCAUAACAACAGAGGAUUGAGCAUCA: 1.57 ratio
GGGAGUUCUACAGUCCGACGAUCAAUUUUUUAAAGUUUUUUAAUUUAUUUUUUUCUUUUGGGGGUAAAGUUCGCUCUACCAAAUAGUGAUCGUAACAAAUUGAUCUGUUAUGGAUGUUGCUAUAGUGACAUGCAAUUAUAUCUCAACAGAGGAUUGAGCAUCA: 0.719 ratio
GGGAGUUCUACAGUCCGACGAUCUUUGCACAUGACAGUGUUGCAUGGAGGAUCUUCUGAGGAAGAAAGAGGAGAGGGGUGCUGUAGCAGUGGUGCCUGGGAGCCUGGCCUCCAGUGUCCCACCCGCCUCACCACCCUACUUGGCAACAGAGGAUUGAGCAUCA: 0.4 ratio
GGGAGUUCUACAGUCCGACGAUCUAUCUUUAGGAUGAAGCUCUUACACCAGGUGGCACGAGUCUGGAAGACAGAUGGGUUGACUAGUUGUACUUAUAAGUUACUUUCUGUGAAGCACAAUCCUUUGUAUAUCAAUAUCACAGUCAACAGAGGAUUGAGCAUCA: 0.597 ratio
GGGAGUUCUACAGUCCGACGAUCUUGUAUUGAUCAGGUCUGUAAAUGUGUACUAAAAAAAUCAGAGUUUAUUUAUAAACAGAUUAGUAUAUUAAAAAAAAAGGUUUUCUUCAUUGAUGUAGUGGUAUGCAUUCAAUAAACUUGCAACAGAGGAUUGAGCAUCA: 0.294 ratio
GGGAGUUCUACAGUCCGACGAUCUCAUUGUACUGCCAAAGUUAUCCUAGUUCUAAAGUAGCCAUAGUGAUAACUAGUCUACACUAGCAGAAUCAUUUGUUGUCACUUUUUAAAAUUAUCUGCUUUGUCUGGUACCUGGAACCACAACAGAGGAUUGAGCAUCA: 0.472 ratio
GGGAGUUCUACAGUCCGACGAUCCUUAAUUAGAGAGUAGUAUAUGUUUCAUAAAGAAAAGUCUUUCUAAUUUUGUUUGUCAUAUAGUAUUUUGGAAUUUGUAUAAUGAGGAUGUUUAGAAGCCAUAUAAAUGGCUUUUUUUAACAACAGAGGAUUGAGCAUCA: 0.544 ratio
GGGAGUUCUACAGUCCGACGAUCUCAGUCCCCUGGGCUGGGACAGAUUUUUUUUAACGUCUUGAAACUUAAAUUCUGUGCUUGUAGGAGACUCUAACGUUUUUGUCUUUUUUUUUUUACACAAAACCACCUCCACCUCUAGUGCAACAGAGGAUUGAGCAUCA: 0.357 ratio
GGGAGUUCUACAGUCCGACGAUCCUGCAGAUUCUCUCAUAGGGAGAGCUGCACACAUUGCUGUUCUUGAUUCAGAAAUAUUUUUAGAAAAAUUCUUUCUUGUUGCUGCCCUGAAAUAUUUUCAGUAGAGAAUAGCAUUCUAAGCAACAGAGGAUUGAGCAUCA: 0.268 ratio
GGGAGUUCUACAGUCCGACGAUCCGUCCUUGUUAAGCACUGCUUUCCAGACCGUGUCUGACUUAGUCAACCUAGAGGAUUUUAUAGUUUCACUCUAAUGAAGUCCUGAUUAACACAGAGCAGCGGAGCAGCGGUCCCUCCCCUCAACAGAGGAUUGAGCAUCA: 0.53 ratio

For quick reference, copied from above (study 2):
L93M: 87.9%
Q31G: 66%
N114D: 97.9%
D95C: 80.7%
T39H: 99%
C25N: 56.6%
W41N: -18.9%
G23N: 101%
